Results of several laboratories.
Numbered parts are unrelated; each lists some results of a single study. Positions count from the first letter of the parent shown.

Set 1
Target: Sal-like protein 4, full length isoform B (SALL4, Homo sapiens, UniProt Q9UJQ4-2, residues 1-616)
Technique: universal PBM
Molecule type: double-stranded DNA, one strand shown
Medium: in vitro
Tested at: not given
Setting: 8-mer, flanks averaged, mean of replicates
Reading: higher = stronger binding
Sequence	E-score
GTCGTCAC	0.00402
CCGTGACG	-0.155
AGTACACG	-0.066
CGCTTGGA	-0.148
AGTATCGA	0.177
AGATATGC	0.173
GCGATCGA	-0.154
AGTGCACC	-0.1
GCACTAGC	-0.127
ACGGCGAC	-0.318
ACCTTAAG	-0.00371
AGCGACAC	-0.111
CACTTGCC	-0.168
ATGTAACG	0.252
AACCTCGT	0.0865
AACCGAGC	-0.239
GCTATAGC	0.0484
GGGTGGGA	-0.0841
ATGATTCC	0.244
AACGATCT	-0.00057
CAAATTCC	0.235
CTACAGCA	-0.0909
ATAAAGTA	0.345

Set 2
Target: NFE2, bZIP domain (human)
Technique: DHFR protein complementation
Medium: yeast
Setting: single substitutions, most at no-binding floor
Reference: wild-type JUN-FOS pair
Reading: higher = stronger binding
Starting sequence: JUN, bZIP domain (human); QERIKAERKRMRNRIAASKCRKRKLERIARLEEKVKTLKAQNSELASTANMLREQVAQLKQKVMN; partner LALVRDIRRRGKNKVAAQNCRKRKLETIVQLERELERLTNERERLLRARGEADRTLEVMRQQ
Change	binding fitness [natural log]
K36S	-1.53
N42I	-1.52
A46H	-1.51
A46W	-1.44
E54T	-1.27
R30H	-1.38
K39V	-1.47
S47H	-1.3
I28Q	-1.22
E54F	-1.51
E32Q	-1.47
V56S	-1.47
T37N	-1.42
E32K	-1.4

Set 3
Target: Prothrombin, mature alpha-thrombin (F2, Homo sapiens, UniProt P00734)
Technique: aptamer microarray, sandwich
Molecule type: DNA with 2'F-ANA
Medium: in vitro
Tested at: 200 nM
Setting: whole 15-mer aptamer, many near background
Together with: Cy3 exosite-II aptamer, 400 nM
Reading: higher = stronger binding
Sequence: GGTTGGTGTGGTTGG
Modification	mean fluorescence intensity [a.u.]
2'F-ANA at 1 3 5 14	40.4
2'F-ANA at 3 6 11 12 13	1020
2'F-ANA at 1 2 3 4 5 6 8 11 12 13 15	71.3
2'F-ANA at 3 6 9 10 11 13 15	414
2'F-ANA at 1 2 3 4 5 7 8 9 10 11 13 14 15	55.2
2'F-ANA at 1 3 4 7 10 11 12 15	78.1
2'F-ANA at 3 5 6 8 12 15	251
2'F-ANA at 6 8 10 12 13 14 15	100
2'F-ANA at 3 5 7 8 10 13 15	115
2'F-ANA at 3 5 12	319
2'F-ANA at 2 4 6 11 13 15	146
2'F-ANA at 1 3 4 5 8 9 10 11	46.5
2'F-ANA at 4 5 7 10 11 13 15	90.5
2'F-ANA at 2 3 4 5 6 7 8 14 15	51.7
2'F-ANA at 3 4 6 8 9 12 13 14 15	246
2'F-ANA at 4 9 11 12 13 14 15	87.2
2'F-ANA at 1 8 12 13	400
2'F-ANA at 4 6 9 10 12 14 15	69.7
2'F-ANA at 3 4 7 12 14 15	472
2'F-ANA at 1 3 5 6 7 9 12 14	54.3
2'F-ANA at 1 4 5 6 8 10 13 14 15	47.9
2'F-ANA at 1 6 7 9 10 12 15	78.9
2'F-ANA at 4 6 7 8 9 12 15	507
2'F-ANA at 1 3 4 6 7 10 11 12	73.5
2'F-ANA at 1 2 8 9 12 13 15	302

Set 4
Target: ABI1, truncated, D143A, DHFR fusion (Arabidopsis thaliana)
Technique: DHFR PCA, deep sequencing
Medium: yeast
Setting: methotrexate growth selection, single substitutions
Together with: (+)-ABA 710 µM
Reference: wild-type fitted maximum
Reading: higher = stronger binding
Starting sequence: PYL1, truncated, DHFR fusion (Arabidopsis thaliana); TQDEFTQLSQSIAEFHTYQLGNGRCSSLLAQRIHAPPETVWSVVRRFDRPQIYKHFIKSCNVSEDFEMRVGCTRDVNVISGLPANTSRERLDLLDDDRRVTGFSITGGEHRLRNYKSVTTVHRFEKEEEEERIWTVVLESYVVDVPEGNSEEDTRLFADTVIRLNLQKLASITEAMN
Change	relative binding score [%]
D48L	19
K116H	100
S150H	84.8
N61Y	99.5
E4M	109
F157Y	92.5
A175C	100
L20A	102
D95R	82.2
V136I	91.6
D75G	90.5

Set 5
Target: CCNA1, cyclin fold, Cln2 fusion (human)
Technique: yeast growth competition, sequencing
Medium: yeast
Setting: weak parent motif
Reference: not given
Reading: higher = stronger binding
Starting sequence: ORC1 docking peptide (human); PRARKRLELGNLG
Change	normalised enrichment score
PAARKRLELGNLG [R2A]	0.202
ERARKRLELGNLG [P1E]	0.652
PWARKRLELGNLG [R2W]	0.454
PRARKRLELGGLG [N11G]	0.758
PRARARAELGNLG [K5A L7A]	0.455
PRARKRLETGNLG [L9T]	0.457
PRARKRLELANLG [G10A]	0.308
PRARKRLELNNLG [G10N]	0.319
PRYRKRLELGNLG [A3Y]	0.792
PRAVKRLELGNLG [R4V]	0.295
PRANKRLELGNLG [R4N]	0.217
PRARKRLECGNLG [L9C]	0.475
PRARKRLTLGNLG [E8T]	0.0721
PRARKRLRLGNLG [E8R]	-0.0483
PRARKREELGNLG [L7E]	0.266
PRRRKRLELGNLG [A3R]	0.185

Set 6
Target: Hepatocyte nuclear factor 3-beta, forkhead domain (FOXA2, Homo sapiens, UniProt Q9Y261, residues 142-269)
Technique: protein-binding microarray
Molecule type: double-stranded DNA, one strand shown
Medium: in vitro
Tested at: not given
Setting: k-mer, scored over probes, only values ≥0.25
Reading: higher = stronger binding
Construct (chain): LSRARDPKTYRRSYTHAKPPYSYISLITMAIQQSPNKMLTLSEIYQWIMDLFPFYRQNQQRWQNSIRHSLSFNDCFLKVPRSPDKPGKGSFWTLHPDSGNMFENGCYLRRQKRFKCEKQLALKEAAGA
Sequence	E-score
AATTTGTA	0.333
AAACACAT	0.326
GAATATAC	0.284
GTACGTTA	0.268
ATACTTTG	0.254
TAATAGAA	0.282
CATATGTA	0.299
ATTACAGG	0.301
AGTGTTAT	0.25
ACATGTAG	0.367
ATATCCAA	0.291
ATTGTTAC	0.393
TTACCTAA	0.259
TATCCAAA	0.326

Set 7
Target: Histone acetyltransferase KAT6A, both winged helices, GST fusion (KAT6A, Homo sapiens, UniProt Q92794, residues 1-181)
Technique: protein binding microarray
Molecule type: double-stranded DNA, one strand shown
Medium: in vitro
Tested at: not given
Setting: 8-mer, flanks averaged, mean of 2 arrays, mostly near background
Reference: not given
Reading: higher = stronger binding
Target sequence (chain): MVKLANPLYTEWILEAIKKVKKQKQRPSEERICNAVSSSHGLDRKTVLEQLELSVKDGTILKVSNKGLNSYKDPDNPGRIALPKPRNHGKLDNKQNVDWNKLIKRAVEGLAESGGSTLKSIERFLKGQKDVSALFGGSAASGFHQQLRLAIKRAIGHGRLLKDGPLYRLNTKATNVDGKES
Sequence	E-score
CGCGGATA	0.267
AAGCCCGT	0.203
AATAAGTA	-0.181
CGTAACTC	0.0347
ATTGCTCG	-0.0849
AGGCGTAG	-0.0698
ATTTCCAG	-0.129
AATTGGAA	-0.0357
AGGTGGCG	-0.0327
ACATATCG	0.0345
AAACGGAA	0.281
AATTGCTG	0.067
CGGGTCGC	0.312
GGTAACCA	-0.0395
AAAACAGT	0.0618
AACGGCGG	0.288
GTCGCGAC	0.267
ACCTGGAT	-0.195

Single results of other studies
Substance	target	assay	system	setting	how to read	measurement	result
PhoQ, residues 284 288 289 292 302 303 TVTVVA	PhoP, residues 12 14 15 18 19 QWHVF (Escherichia coli, UniProt P23836)	Sort-seq, measured: YFP reporter	E. coli	PhoQ-PhoP variant library, together with: 10 µM Mg2+	reference: high Mg2+ state, higher = stronger signaling	fold induction	6.61

Excerpt of the above (set 6):
Sequence	E-score
CATATGTA	0.299
TAATAGAA	0.282
ATTGTTAC	0.393
GAATATAC	0.284
GTACGTTA	0.268
TATCCAAA	0.326
AATTTGTA	0.333
AAACACAT	0.326
ATACTTTG	0.254
ATATCCAA	0.291
TTACCTAA	0.259
ACATGTAG	0.367
AGTGTTAT	0.25
ATTACAGG	0.301
